Measured values gathered from unrelated publications.
Lines come from different studies, so protocols differ. ± marks the error that the study gave.
Cereblon/Ikaros: Cereblon/Ikaros (Homo sapiens, UniProt Q13422+Q96SW2)
Sequence of UniProt Q13422 (whole entry, looked up): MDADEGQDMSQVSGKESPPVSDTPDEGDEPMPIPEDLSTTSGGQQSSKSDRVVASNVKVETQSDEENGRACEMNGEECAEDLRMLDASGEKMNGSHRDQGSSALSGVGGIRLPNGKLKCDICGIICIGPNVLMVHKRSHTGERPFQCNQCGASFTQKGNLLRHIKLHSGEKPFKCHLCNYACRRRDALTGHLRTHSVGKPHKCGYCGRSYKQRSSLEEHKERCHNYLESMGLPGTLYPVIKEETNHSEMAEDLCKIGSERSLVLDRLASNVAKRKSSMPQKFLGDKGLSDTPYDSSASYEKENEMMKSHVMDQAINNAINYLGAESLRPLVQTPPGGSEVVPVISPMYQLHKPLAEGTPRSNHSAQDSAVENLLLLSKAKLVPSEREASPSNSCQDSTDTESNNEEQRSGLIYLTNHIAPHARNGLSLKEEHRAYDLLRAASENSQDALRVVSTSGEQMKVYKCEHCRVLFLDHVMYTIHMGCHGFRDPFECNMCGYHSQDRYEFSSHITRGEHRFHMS
Sequence of UniProt Q96SW2 (whole entry, looked up): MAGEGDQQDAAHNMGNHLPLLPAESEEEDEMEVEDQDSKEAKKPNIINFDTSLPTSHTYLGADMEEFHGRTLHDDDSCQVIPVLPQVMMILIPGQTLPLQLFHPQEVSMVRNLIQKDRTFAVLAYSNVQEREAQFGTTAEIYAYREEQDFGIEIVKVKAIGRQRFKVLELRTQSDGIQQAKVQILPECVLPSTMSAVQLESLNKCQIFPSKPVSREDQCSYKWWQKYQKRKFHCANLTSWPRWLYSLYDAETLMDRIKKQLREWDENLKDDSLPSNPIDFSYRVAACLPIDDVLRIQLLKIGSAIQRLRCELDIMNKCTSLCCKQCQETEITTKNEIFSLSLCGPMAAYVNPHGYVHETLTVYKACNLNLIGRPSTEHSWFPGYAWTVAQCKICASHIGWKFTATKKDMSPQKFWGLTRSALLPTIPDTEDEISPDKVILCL
USP33 ZnF-UBD domain: Ubiquitin carboxyl-terminal hydrolase 33, ZnF-UBD domain (USP33, Homo sapiens, UniProt Q8TEY7)
Sequence of UniProt Q8TEY7 (whole entry, looked up): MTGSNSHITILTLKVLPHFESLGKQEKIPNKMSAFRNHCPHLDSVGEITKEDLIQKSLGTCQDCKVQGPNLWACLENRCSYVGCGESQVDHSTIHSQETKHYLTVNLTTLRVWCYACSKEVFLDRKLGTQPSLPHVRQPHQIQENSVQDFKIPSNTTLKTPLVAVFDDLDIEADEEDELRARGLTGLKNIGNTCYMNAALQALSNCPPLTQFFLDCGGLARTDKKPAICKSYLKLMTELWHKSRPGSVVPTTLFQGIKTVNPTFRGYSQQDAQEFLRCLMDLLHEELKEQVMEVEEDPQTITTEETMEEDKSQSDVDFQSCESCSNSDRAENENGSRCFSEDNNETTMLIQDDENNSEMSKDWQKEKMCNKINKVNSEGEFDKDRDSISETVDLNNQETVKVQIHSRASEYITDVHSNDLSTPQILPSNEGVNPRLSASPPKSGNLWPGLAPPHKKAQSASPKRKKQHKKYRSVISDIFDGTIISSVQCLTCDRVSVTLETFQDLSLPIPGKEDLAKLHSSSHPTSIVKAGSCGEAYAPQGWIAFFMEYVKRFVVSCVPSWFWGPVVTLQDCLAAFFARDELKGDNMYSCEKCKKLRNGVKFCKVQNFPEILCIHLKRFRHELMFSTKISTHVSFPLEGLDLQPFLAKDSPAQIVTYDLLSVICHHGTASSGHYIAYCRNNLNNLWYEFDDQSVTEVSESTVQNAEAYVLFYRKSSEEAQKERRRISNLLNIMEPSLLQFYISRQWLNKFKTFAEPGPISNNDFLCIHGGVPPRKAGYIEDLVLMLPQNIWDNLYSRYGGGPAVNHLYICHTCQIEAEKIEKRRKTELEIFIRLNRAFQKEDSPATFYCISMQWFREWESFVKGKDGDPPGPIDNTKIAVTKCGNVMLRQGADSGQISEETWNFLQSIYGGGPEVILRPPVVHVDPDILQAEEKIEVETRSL
IDE: Insulin-degrading enzyme (IDE, Homo sapiens, UniProt P14735)
Sequence of UniProt P28074 (whole entry, looked up): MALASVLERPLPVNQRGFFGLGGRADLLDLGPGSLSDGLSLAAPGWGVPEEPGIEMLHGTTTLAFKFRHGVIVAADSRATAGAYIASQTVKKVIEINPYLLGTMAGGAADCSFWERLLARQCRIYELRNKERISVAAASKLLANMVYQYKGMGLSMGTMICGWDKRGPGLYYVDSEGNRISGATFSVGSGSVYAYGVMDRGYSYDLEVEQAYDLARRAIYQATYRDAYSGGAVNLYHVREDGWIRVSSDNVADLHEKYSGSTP

Cc1ccccc1C(=O)Nc1ccc2c(c1)CN(C1CCC(=O)NC1=O)C2=O (stereo not drawn)  DC50 (Cereblon/Ikaros; degrader, live-cell HiBiT kinetic; Jurkat Ikaros-HiBiT LgBiT): > 10000 nM
Nc1ncnc2c1ncn2[C@@H]1O[C@H](COP(=O)(O)OP(=O)(O)O)[C@@H](O)[C@H]1O  Ki (klp-6 (Caenorhabditis elegans, UniProt G5EFQ4, I117M/S116T/V118M); microtubule gliding velocity, competitive inhibitor, single-molecule TIRF; pH 7.4, added: Mg-ATP varied, porcine microtubules): 11900 ± 300 nM
CCC(C)(NCCc1ccc(OC)cc1)c1cccc(NC2=CC(=O)N(C3CCC(=O)NC3=O)C2=O)c1 (stereo not drawn)  DC50 (Cereblon/Ikaros; degrader, HiBiT luminescence, refers to: endogenous HiBiT-tagged protein): 60 ± 14 nM
O=C(O)CN1Cc2ccccc2C1=O  Kd (USP33 ZnF-UBD domain): > 1 mM
Cc1ccccc1-c1ccc([C@H]2[C@@H](CO)N3CCCCN(C(=O)CN4CCOCC4)C[C@@H]23)cc1  EC50 (IDE; enzyme activity, inhibitor, fluorogenic kinetic; added: Mca-RPPGFSAFK(Dnp)-OH substrate): 25 µM
CCC(CC)(NCCc1ccc(C(F)(F)F)c(Cl)c1)c1cccc(NC2=CC(=O)N(C3CCC(=O)NC3=O)C2=O)c1 (stereo not drawn)  DC50 (Cereblon/Ikaros; degrader, HiBiT luminescence, refers to: endogenous HiBiT-tagged protein): 100 ± 36 nM
O=C(O)CCN1C(=O)c2ccccc2S1(=O)=O  Kd (USP33 ZnF-UBD domain): > 1 mM
NS(=O)(=O)c1nnc(NC(=O)CCc2ccc(F)cc2)s1  Ki (Enterococcus faecium γ-carbonic anhydrase; CO2 hydration, inhibitor, stopped-flow kinetics): 76.8 nM
CO[C@H]1CN(C)C(=O)c2cc(NC(=O)c3ccc(Oc4ccccc4)cc3)ccc2OC[C@@H](C)NC[C@@H]1C  EC50 (IDE; enzyme activity, inhibitor, fluorogenic kinetic; added: Mca-RPPGFSAFK(Dnp)-OH substrate): 2.9 µM
O=C(O)Cn1ccc2ccccc2c1=O  Kd (USP33 ZnF-UBD domain): > 1 mM
Cc1ccccc1S(=O)(=O)N1CCCCN2[C@H](CO)[C@@H](c3ccc(-c4cccc(O)c4)cc3)[C@@H]2C1  EC50 (IDE; enzyme activity, inhibitor, fluorescence kinetic; added: Mca-RPPGFSAFK(Dnp)-OH substrate): 7.3 µM
CN(CCc1ccc(Cl)c(C(F)(F)F)c1)C1(c2cccc(NC3=CC(=O)N(C4CCC(=O)NC4=O)C3=O)c2)CCC1 (stereo not drawn)  DC50 (Cereblon/Ikaros; degrader; human cells): 10 nM
CC1(C)CCN(CC(=O)Nc2nnc(S(N)(=O)=O)s2)CC1  Ki (Enterococcus faecium γ-carbonic anhydrase; CO2 hydration, inhibitor, stopped-flow kinetics): 135 nM
CC(C)C[C@H](NC(=O)[C@H](Cc1ccccc1)N=[N+]=[N-])C(=O)N[C@@H](CO)C(=O)N[C@H](/C=C/S(C)(=O)=O)Cc1ccc(CN)cc1  IC50 (PSMB5 (Homo sapiens, UniProt P28074); competitive ABPP; Raji cell lysate): 5.53 µM
Cc1ccccc1-c1ccc([C@@H]2[C@@H](CO)N3C(=O)CN(C(=O)Cc4ccccn4)C[C@@H]23)cc1  EC50 (IDE; enzyme activity, inhibitor, fluorogenic kinetic; added: Mca-RPPGFSAFK(Dnp)-OH substrate): 2.7 µM
NS(=O)(=O)c1cnc(NC(=O)CC2CCCCC2)s1  Ki (Enterococcus faecium γ-carbonic anhydrase; CO2 hydration, inhibitor, stopped-flow kinetics): 717 nM
CCC(=O)N1[C@H](CO)[C@H](c2ccc(-c3ccccc3OC)cc2)[C@H]1CNC(C)=O  EC50 (IDE; enzyme activity, inhibitor, fluorogenic kinetic; added: Mca-RPPGFSAFK(Dnp)-OH substrate): 10.7 µM
CC(C(=O)Nc1nnc(S(N)(=O)=O)s1)C1CCCCC1 (stereo not drawn)  Ki (Enterococcus faecium γ-carbonic anhydrase; CO2 hydration, inhibitor, stopped-flow kinetics): 256 nM
